Published values collected from several papers.
Lines come from different studies, so protocols differ.
TDP1: Tyrosyl-DNA phosphodiesterase 1 (TDP1, Homo sapiens, UniProt Q9NUW8)
Chain of UniProt Q9NUW8 (whole entry, looked up): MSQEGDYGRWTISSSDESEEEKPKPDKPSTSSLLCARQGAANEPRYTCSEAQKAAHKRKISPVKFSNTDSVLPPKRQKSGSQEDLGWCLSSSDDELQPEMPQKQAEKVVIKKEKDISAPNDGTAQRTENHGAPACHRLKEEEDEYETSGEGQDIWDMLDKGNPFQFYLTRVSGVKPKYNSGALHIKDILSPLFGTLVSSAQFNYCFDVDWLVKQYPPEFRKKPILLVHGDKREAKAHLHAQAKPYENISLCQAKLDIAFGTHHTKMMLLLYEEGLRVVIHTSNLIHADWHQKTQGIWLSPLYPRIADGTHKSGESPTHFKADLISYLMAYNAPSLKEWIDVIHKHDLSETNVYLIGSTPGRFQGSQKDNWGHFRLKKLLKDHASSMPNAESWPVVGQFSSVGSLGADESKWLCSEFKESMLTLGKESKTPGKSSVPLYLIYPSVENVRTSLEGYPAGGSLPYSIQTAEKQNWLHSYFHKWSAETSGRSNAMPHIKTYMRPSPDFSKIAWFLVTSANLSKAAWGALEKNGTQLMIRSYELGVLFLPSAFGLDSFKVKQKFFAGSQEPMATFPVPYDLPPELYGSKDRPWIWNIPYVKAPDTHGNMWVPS

Cn1nc(Nc2ccc(C#N)cc2)c2c(N)nc(-c3ccccc3)nc21 — IC50 (rhinovirus A2; viral cytopathic effect; HeLa): 92.3 µM
c1ccc2c(Cc3c(-c4c[nH]c5ccccc45)[nH]c4ccccc34)c[nH]c2c1 — IC50 (Phocaeicola dorei; bacterial growth, inhibitor, OD600; anaerobic): > 50 µM
CNCc1ccc2c(c1)N(C(=O)OCc1c(F)c(F)c(F)c(F)c1F)[C@H](CNC(=N)N)[C@H]2NC(=O)C(=O)Nc1ccc(Cl)c(F)c1 — IC50 (HIV-1; pseudovirus infection, Env pseudovirus neutralisation; TZM-bl, clade G isolate C1_B5): 1.59 µM
CCN(CC)CC#CCNc1ccnc2cc(Cl)ccc12 — IC50 (Plasmodium falciparum; parasite growth, LDH): 0.086 µM
Cc1cncc(N2CCC(C=NOCc3ccc4nc(-c5ccccc5)c(Nc5ccc(C(=O)O)cc5)n4c3)CC2)n1 — inhibition (TDP1; enzyme activity, inhibitor; 100 µM, unpurified compound): 95.4%
CC(C)[C@@H]1NC(=O)[C@@H](CCCNC(=N)N)NC(=O)[C@H]([C@@H](C)O)NC(=O)[C@@H](CCCN)NC(=O)[C@H](Cc2cccc(F)c2)NC(=O)[C@@H](Cc2ccccc2)NC1=O — IC50 (Balamuthia mandrillaris; parasite growth, ATP luminescence; 72 h): ≤ 5 µM
Cc1ccc(Nc2n[nH]c3nc(-c4cccc(F)c4)nc(N)c23)cc1 — IC50 (rhinovirus A2; viral cytopathic effect; HeLa): 7.24 µM
COc1ccccc1NC(=O)OC1C(C)C(OC)C=COC2(C)Oc3c(C)c(O)c4c(c3C2=O)C2=NC3(CCN(CC(C)C)CC3)NC2=C(NC(=O)C(C)=CC=CC(C)C(O)C(C)C(O)C1C)C4=O (centres unmarked) — IC50 (Mycobacteroides abscessus; intracellular growth, visual read; THP-1 derived macrophages, ATCC 19977): 0.018 µM
CC(C)[C@@H]1NC(=O)[C@@H](CCCNC(=N)N)NC(=O)[C@H]([C@@H](C)O)NC(=O)[C@@H](CCCN)NC(=O)[C@H](Cc2ccc(F)cc2)NC(=O)[C@@H](Cc2ccccc2)NC1=O — IC50 (Balamuthia mandrillaris; parasite growth, ATP luminescence): 9.09 µM
O=C1Nc2ccccc2C1(c1c[nH]c2ccccc12)c1c[nH]c2ccccc12 — IC50 (Phocaeicola dorei; bacterial growth, inhibitor, OD600; anaerobic): > 50 µM
Nc1nc(=O)[nH]cc1F — IC50 (Balamuthia mandrillaris; parasite growth): 86 µM
Nc1nc(-c2ccccc2)nc2[nH]nc(Nc3c(F)cccc3F)c12 — IC50 (rhinovirus A2; viral cytopathic effect; HeLa): 14.2 µM
CC(c1c[nH]c2ccccc12)c1c[nH]c2ccccc12 — IC50 (Phocaeicola dorei; bacterial growth, inhibitor, OD600; anaerobic): > 50 µM
CC(C)[C@@H]1NC(=O)[C@@H](CCCNC(=N)N)NC(=O)[C@H]([C@@H](C)O)NC(=O)[C@@H](CCCN)NC(=O)[C@H](Cc2ccccc2)NC(=O)[C@@H](Cc2cccc(F)c2)NC1=O — IC50 (Balamuthia mandrillaris; parasite growth, ATP luminescence; 72 h): ≤ 5 µM
O=Cc1c[nH]c2ccccc12 — IC50 (Phocaeicola dorei; bacterial growth, inhibitor, OD600; anaerobic): > 50 µM
Cc1cccc(-c2nc(N)c3c(Nc4ccc(F)cc4)n[nH]c3n2)c1 — IC50 (rhinovirus A2; viral cytopathic effect; HeLa): 3.59 µM
Cc1nc(C)c2c(C)c(C=NOCc3ccc4nc(-c5ccccc5)c(Nc5ccc(C(=O)O)cc5)n4c3)sc2n1 (mixture of isomers) — inhibition (TDP1; enzyme activity, inhibitor; 100 µM, unpurified compound): 0.3%

Repeated from above:
O=Cc1c[nH]c2ccccc12 — IC50 (Phocaeicola dorei; bacterial growth, inhibitor, OD600; anaerobic): > 50 µM
